Results gathered from unrelated publications.
Each numbered part is a random draw from the data of one study; scales do not carry over between parts. Changes are numbered by the printed parent chain.

Series 1 — target: CCNB1, cyclin fold, Cln2 fusion (human); method: yeast growth competition, sequencing; matrix: yeast; notes: weak parent motif; relative to: not given; reading: higher = stronger binding
Starting sequence: GMNC docking peptide (human); KNAKRNLSSEFAN
Substitution | normalised enrichment score
K4D | -0.303
N2I | 0.297
L7H | 0.418
E10V | 0.185
K4A | -0.095
N2S | 0.0988

Series 2 — method: protein-binding microarray; form: double-stranded DNA, one strand shown; matrix: in vitro; tested at: 250 nM; notes: 60-bp whole probe; together with: salmon DNA 0.4 mg/ml; relative to: random background probes; reading: higher = stronger binding; shared flanks, not repeated: GCCTAGCAC … GTCTTGATTCGCTTGACGCTGCTG
Target: Interferon regulatory factor 7, full length, phosphomimetic (IRF7, Homo sapiens, UniProt Q92985, residues 1-503, S101K/S471D/S472D/S475D/S476D/S477D/S483D/S484D/S487D)
Sequence of UniProt Q92985 (whole entry, unmodified, looked up): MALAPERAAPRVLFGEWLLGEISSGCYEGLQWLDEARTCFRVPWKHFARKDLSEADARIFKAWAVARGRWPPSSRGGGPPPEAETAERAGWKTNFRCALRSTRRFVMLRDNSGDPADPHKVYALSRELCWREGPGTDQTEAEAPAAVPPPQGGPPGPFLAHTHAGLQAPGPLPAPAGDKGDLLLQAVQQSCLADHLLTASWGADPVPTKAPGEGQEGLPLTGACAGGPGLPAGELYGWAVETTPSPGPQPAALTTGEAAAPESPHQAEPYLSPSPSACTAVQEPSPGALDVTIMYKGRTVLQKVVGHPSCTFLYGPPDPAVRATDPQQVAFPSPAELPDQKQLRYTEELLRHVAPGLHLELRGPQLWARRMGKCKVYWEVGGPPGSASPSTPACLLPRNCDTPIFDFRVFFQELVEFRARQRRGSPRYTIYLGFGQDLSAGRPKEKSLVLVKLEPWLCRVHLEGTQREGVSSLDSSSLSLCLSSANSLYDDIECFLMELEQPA
Oligonucleotide | log fluorescence [z-score]
AGGACCATCCCTTATAAATAGGTGCTA | 0.191
TTAGGTTTCCATTTCCTTTAGTGCTAG | 8.27
TTAGATATCAGTCTCTATTAGTGCTAG | 0.416
TATAGGTTGTTTCTAATATTGTGCTAG | 0.239
CTGATTTTGCTTTCATTTATGTGCTAG | 0.991
TCAACTCCCTCTCTGGCACTGTGCTAG | -0.44
TTAAGTATCGGGTTTCGGTTAGTGCTA | 7.56
GCCCCTTTCCTTTGCCTCTGGTGCTAG | 2.05

Series 3 — method: DHFR PCA, deep sequencing; matrix: yeast; together with: (+)-ABA 0.0091 µM; relative to: wild-type fitted maximum; reading: higher = stronger binding
Target: ABI1, truncated, D143A, DHFR fusion (Arabidopsis thaliana)
Notes: methotrexate growth selection, single substitutions
Starting sequence: PYL1, truncated, DHFR fusion (Arabidopsis thaliana); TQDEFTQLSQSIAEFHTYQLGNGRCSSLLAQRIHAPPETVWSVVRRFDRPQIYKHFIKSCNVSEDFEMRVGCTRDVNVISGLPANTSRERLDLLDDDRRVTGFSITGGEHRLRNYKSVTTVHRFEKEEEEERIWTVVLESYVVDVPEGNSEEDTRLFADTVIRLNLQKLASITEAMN; partner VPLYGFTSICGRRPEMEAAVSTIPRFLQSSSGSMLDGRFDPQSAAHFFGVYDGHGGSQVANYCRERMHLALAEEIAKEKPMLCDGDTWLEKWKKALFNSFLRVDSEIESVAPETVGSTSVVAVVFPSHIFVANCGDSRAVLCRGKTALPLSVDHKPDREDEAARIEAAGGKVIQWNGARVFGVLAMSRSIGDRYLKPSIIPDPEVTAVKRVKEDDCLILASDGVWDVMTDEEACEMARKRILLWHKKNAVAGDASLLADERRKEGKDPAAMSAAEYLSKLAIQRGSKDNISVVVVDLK
Substitution | relative binding score
T154E | -4.46%
T73S | 4.99%
E128S | 35.3%
G148T | 1.32%
P83S | 27.5%
L94M | 4.55%

Single results of other studies
Molecule | target | test | system | conditions | scale | endpoint | result
PhoQ, residues 284 288 289 292 302 303 AANNSF | PhoP, residues 12 14 15 18 19 IFFTR (Escherichia coli, UniProt P23836) | Sort-seq, refers to: YFP reporter | E. coli | PhoQ-PhoP variant library, together with: 10 µM Mg2+ | relative to: high Mg2+ state, higher = stronger signaling | fold induction | 9.4

Repeated from above (series 2):
Oligonucleotide | log fluorescence [z-score]
TTAAGTATCGGGTTTCGGTTAGTGCTA | 7.56
GCCCCTTTCCTTTGCCTCTGGTGCTAG | 2.05
